Measurements pooled from the literature.
Every numbered part comes from another study and shows a few of its results, in no order.
UniProt P08913, sequence (whole entry, looked up): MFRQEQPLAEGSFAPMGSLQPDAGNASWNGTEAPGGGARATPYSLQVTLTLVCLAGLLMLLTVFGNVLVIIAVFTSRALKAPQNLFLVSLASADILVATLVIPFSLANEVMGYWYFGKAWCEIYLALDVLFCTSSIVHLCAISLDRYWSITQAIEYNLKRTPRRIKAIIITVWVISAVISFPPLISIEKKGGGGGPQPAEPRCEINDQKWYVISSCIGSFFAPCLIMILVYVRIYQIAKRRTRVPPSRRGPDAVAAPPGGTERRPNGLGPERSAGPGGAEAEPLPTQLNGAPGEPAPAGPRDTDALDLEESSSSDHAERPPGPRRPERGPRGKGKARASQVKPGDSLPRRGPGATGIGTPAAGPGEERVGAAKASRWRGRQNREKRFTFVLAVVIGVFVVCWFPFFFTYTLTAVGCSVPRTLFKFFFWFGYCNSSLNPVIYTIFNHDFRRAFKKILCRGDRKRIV
UniProt P08588, sequence (whole entry, looked up): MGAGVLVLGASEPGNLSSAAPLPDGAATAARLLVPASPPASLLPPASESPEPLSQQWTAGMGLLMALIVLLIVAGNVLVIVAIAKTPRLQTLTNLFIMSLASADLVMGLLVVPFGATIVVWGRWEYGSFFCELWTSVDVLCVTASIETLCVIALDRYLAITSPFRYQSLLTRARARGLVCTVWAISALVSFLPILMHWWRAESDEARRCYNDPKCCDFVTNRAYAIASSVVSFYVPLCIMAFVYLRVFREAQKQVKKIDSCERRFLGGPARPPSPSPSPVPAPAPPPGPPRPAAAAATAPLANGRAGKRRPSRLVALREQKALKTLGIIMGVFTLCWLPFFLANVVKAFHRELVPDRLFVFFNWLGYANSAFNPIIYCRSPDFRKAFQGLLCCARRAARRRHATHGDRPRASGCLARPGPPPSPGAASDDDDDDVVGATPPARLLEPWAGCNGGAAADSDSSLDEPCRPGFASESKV

Set 1 — technique: protein-binding microarray; form: double-stranded DNA, one strand shown; sample: in vitro; tested at: not given; reading: higher = stronger binding
Target: Transcriptional repressor CTCF (CTCF, Homo sapiens, UniProt P49711, residues 1-727, full length assumed)
UniProt P49711, sequence (whole entry, looked up): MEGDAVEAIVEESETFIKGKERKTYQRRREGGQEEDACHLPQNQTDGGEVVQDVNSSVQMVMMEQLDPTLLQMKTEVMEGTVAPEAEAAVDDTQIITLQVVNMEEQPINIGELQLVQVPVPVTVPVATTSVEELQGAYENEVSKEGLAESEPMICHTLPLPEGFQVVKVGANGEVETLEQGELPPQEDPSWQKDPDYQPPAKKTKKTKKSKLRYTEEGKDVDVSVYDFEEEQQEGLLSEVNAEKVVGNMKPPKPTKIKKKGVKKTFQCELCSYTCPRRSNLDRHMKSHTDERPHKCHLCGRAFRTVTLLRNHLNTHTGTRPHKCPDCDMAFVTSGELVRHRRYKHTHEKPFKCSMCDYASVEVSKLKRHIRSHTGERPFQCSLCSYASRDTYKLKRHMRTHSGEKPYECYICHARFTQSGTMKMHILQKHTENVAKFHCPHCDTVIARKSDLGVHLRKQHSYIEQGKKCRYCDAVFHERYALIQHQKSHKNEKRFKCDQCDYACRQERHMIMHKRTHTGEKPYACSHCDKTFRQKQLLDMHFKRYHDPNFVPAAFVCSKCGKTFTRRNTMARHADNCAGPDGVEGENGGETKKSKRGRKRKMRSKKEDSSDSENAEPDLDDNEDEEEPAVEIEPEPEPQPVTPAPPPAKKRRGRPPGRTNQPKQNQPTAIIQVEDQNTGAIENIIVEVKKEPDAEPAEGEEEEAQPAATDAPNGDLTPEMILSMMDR
Setting: k-mer, scored over probes, only values ≥0.25
Sequence | E-score
TAACGATA | 0.3
AACATACA | 0.263
TGTTATAA | 0.378
CCGCAATA | 0.251
ATTCATAA | 0.321
AACGCAAC | 0.281
CATGCGCG | 0.259
ATTAATTA | 0.278

Set 2 — technique: universal PBM; form: double-stranded DNA, one strand shown; sample: in vitro; tested at: not given; reading: higher = stronger binding
Target: Sal-like protein 4, full length isoform B (SALL4, Homo sapiens, UniProt Q9UJQ4-2, residues 1-616)
Setting: 8-mer, flanks averaged, mean of replicates
Construct (chain): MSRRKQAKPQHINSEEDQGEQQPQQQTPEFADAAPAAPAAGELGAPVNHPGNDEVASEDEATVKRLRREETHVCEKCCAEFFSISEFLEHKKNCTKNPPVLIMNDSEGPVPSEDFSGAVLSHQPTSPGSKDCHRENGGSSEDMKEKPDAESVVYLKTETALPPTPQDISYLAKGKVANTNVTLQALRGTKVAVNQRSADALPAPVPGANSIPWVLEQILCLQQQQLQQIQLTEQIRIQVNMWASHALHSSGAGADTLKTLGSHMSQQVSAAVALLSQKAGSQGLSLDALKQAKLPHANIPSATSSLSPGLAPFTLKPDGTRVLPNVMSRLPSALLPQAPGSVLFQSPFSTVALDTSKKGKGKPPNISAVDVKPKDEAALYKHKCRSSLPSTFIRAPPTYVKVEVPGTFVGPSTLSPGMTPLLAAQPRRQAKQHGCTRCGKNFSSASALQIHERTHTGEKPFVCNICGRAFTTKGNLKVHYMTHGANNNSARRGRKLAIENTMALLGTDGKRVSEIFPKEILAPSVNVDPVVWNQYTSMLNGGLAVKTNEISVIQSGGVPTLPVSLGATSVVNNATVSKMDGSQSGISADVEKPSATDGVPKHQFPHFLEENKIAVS
Sequence | E-score
AATCGCCC | -0.158
CGAGTAAG | -0.104
ACGTTTCT | 0.0573
AACTCTGC | -0.233
ACCTGGTG | -0.24
CCACGGGA | -0.232
TGCTGTAA | 0.157
CCTAGGAG | -0.112

Set 3 — observed: cell-free assay; tested at: 10 µM
SMILES: C[C@H](NC(=O)Nc1cc2[nH]ncc2c(CO)n1)c1ccccn1
target | inhibition
ADRA2A (Homo sapiens, UniProt P08913) | 16.8%
SIGMAR1 (Homo sapiens, UniProt Q99720) | 12.8%
ADRB1 (Homo sapiens, UniProt P08588) | 28.2%

Single results of other studies
Molecule | tested on | assay | system | conditions | endpoint | value
O=C(Nc1cccc2c1N(c1ncccn1)CC2)c1ccccc1 | – | – | human, microsomes or S9 | 2 µM, 0.5 h | remaining compound | 1.34%
UQCRQ (Homo sapiens, UniProt O14949) | CYC1 (Homo sapiens, UniProt P08574) | cross-linking MS | cells | added: BSPNO | cross-linked residues | K33 to K318

For quick reference, copied from above (set 2):
Sequence | E-score
ACCTGGTG | -0.24
CCACGGGA | -0.232
TGCTGTAA | 0.157
